Published values pooled from the literature.
Each numbered part is a random draw from the data of one study; scales do not carry over between parts. Values joined by “and” are separate records of one study, mostly repeats; a detail may differ.
Chain of UniProt Q16513 (whole entry, looked up): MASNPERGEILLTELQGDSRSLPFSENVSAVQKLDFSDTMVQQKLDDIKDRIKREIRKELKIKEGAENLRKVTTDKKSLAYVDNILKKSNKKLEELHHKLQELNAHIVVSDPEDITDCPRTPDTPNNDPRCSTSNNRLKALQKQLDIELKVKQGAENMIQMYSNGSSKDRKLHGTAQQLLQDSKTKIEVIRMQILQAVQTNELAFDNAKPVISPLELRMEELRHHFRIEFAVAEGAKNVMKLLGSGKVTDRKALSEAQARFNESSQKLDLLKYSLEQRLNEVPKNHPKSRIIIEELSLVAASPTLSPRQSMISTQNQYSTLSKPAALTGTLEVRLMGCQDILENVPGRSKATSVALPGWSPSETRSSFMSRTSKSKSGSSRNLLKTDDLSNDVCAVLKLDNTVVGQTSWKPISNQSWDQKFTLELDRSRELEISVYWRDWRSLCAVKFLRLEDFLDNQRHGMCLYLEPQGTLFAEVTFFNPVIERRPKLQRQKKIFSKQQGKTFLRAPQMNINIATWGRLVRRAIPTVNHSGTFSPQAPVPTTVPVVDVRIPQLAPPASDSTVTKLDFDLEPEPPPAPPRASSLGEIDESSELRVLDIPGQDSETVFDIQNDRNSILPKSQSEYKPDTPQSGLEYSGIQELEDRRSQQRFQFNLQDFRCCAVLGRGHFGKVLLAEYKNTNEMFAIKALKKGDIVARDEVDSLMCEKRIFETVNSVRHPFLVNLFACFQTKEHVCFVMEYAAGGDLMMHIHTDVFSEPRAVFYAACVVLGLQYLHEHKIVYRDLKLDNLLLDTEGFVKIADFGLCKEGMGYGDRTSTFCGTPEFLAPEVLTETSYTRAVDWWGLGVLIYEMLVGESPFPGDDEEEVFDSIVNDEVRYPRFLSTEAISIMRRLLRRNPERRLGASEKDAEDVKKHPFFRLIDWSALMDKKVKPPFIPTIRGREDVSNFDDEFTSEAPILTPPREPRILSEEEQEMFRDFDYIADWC
Chain of UniProt P49760 (whole entry, looked up): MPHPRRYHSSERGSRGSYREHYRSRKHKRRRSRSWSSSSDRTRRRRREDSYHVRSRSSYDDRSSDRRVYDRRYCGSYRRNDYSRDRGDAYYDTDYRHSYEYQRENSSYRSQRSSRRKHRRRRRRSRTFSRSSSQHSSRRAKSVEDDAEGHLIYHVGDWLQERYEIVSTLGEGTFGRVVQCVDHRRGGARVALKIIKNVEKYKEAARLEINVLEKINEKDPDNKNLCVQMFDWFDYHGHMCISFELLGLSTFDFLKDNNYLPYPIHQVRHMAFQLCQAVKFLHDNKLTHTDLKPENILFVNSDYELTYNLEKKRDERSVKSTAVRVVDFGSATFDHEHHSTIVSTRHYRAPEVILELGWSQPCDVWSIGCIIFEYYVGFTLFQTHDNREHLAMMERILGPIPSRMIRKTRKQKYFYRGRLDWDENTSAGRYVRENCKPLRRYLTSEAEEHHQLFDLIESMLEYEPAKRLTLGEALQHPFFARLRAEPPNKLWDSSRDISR
Chain of UniProt P08631 (whole entry, looked up): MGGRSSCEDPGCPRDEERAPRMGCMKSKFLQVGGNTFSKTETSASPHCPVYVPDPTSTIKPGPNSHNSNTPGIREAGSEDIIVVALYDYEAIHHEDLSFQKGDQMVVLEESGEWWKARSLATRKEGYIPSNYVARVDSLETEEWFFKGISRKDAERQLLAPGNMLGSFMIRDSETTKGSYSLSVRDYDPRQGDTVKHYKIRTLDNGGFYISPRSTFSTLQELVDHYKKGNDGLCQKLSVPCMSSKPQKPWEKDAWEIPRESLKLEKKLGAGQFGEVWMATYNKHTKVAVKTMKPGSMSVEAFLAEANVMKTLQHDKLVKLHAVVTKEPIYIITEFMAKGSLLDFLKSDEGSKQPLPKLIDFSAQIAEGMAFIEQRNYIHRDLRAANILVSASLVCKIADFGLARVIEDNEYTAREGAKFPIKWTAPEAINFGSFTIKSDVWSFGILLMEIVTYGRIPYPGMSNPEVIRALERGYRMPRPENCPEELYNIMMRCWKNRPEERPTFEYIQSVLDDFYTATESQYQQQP
Chain of UniProt P52333 (whole entry, looked up): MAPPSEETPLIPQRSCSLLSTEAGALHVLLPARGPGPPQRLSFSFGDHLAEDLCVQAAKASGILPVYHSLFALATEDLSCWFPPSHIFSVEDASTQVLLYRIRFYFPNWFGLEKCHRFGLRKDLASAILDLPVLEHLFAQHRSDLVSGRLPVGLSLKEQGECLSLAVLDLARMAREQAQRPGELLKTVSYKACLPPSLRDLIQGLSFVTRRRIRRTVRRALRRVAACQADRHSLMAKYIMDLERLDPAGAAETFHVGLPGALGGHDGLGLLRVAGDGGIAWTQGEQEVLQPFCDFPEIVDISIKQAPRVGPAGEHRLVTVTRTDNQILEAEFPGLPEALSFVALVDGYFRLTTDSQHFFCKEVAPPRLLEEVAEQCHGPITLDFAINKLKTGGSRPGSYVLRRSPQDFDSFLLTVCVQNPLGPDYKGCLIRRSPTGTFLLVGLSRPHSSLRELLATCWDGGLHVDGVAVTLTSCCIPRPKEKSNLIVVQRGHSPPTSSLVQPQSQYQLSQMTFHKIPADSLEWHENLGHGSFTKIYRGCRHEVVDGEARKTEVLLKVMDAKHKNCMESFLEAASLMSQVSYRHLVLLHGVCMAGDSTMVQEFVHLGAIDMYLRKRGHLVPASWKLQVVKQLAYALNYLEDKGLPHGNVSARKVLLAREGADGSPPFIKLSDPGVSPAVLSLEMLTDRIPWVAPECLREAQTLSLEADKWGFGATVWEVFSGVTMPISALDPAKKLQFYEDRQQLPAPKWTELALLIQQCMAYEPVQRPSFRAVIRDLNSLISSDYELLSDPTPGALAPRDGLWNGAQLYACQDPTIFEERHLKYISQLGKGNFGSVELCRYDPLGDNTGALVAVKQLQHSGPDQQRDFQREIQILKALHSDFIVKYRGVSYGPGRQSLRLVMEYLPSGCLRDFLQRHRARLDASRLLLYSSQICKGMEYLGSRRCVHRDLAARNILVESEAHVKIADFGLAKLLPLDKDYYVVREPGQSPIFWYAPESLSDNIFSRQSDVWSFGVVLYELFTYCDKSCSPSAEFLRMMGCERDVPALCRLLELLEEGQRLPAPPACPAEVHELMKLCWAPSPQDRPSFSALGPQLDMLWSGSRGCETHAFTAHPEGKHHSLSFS
Chain of UniProt P51812 (whole entry, looked up): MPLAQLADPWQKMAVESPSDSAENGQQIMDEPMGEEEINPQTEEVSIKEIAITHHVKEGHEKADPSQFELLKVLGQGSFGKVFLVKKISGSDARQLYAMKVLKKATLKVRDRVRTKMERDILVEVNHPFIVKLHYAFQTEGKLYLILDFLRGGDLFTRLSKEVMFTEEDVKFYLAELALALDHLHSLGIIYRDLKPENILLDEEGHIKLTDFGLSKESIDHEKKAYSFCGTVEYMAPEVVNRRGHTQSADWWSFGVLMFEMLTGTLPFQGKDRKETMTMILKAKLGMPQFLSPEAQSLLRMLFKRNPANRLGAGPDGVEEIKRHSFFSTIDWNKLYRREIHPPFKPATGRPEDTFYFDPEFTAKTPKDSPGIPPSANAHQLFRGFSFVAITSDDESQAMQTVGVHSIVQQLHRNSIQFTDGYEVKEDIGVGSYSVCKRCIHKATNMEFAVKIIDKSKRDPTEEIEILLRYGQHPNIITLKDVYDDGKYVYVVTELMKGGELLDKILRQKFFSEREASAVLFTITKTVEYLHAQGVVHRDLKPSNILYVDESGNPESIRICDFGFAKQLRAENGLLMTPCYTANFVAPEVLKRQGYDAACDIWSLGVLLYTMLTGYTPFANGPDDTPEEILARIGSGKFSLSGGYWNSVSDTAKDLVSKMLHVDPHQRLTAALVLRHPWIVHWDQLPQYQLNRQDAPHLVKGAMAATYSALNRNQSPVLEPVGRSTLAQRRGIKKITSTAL
Chain of UniProt P27037 (whole entry, looked up): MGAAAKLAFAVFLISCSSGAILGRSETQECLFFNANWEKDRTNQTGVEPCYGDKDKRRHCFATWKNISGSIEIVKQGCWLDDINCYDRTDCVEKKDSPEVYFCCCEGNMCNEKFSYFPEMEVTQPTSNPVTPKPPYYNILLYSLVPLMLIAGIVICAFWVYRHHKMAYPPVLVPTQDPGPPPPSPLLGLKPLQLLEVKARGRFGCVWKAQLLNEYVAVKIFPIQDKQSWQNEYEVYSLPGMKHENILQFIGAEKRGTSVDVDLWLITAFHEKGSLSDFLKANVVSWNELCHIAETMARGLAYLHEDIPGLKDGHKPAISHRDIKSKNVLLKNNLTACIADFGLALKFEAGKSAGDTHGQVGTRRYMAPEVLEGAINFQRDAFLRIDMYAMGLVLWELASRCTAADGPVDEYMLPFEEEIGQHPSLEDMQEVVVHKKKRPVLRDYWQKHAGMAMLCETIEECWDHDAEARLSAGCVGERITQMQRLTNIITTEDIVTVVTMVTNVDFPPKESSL
Chain of UniProt Q13554 (whole entry, looked up): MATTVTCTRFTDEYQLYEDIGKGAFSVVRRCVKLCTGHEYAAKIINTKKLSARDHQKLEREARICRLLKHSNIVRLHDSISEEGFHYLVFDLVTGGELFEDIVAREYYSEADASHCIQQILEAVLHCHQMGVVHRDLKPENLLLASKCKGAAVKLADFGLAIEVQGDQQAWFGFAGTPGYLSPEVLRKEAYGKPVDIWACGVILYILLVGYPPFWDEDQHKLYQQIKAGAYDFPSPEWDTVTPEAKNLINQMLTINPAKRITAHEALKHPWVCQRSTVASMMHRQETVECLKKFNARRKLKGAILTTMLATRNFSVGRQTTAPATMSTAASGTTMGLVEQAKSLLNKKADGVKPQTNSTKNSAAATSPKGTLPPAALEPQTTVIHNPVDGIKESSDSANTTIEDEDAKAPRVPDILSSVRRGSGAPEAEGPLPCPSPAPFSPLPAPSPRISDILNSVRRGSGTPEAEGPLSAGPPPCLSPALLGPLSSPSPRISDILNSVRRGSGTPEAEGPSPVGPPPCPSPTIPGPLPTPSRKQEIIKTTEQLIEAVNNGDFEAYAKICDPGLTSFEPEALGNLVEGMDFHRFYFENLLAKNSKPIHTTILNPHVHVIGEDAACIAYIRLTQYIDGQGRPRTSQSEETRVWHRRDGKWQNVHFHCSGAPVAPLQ

Sample 1
SMILES: CNC(=O)c1ccc(-c2cnn3ccc(C(=O)N(C)c4ccc(Cl)c(C(=O)OC)c4)cc23)cc1
Organism: Cryptosporidium parvum
Technique: time-kill
Cell line: HCT-8
Strain: nanoluciferase-expressing
Reference: DMSO control
The luminescence remaining was 86% and 89.2% (20 µM, 8 h).
It gave 116% and 79.2% for luminescence remaining (0.00102 µM, 72 h).
The luminescence remaining was 11.2% and 10.4% (0.7407 µM, 48 h).
0.2469 µM, 48 h — luminescence remaining: 10.9% and 11.4%.
For 0.7407 µM, 24 h: luminescence remaining read 45.5% and 48%.
0.00914 µM, 24 h — luminescence remaining: 33.1% and 40.2%.
0.00305 µM, 0 h — luminescence remaining: 107% and 102% and 85% and 111% and 135% and 87.2% and 96.3% and 119%.
0.7407 µM, 0 h — luminescence remaining: 85.3% and 97.9% and 93.1% and 106% and 102% and 94.5% and 113%.
0.00102 µM, 4 h — luminescence remaining: 109% and 98.9%.
The luminescence remaining was 9.34% and 9.28% (6.667 µM, 72 h).
0.02743 µM, 4 h — luminescence remaining: 119% and 95.2%.
It gave 105% and 101% and 92% and 94.1% and 85.9% and 117% and 103% and 102% for luminescence remaining (0.00914 µM, 0 h).
For 2.222 µM, 4 h: luminescence remaining read 98.1% and 126%.

Sample 2
Compound: O=C1CCC(N2Cc3c(ccc4c3OCC43CCN(Cc4ccccc4)CC3)C2=O)C(=O)N1 (centres unmarked)
Medium: plasma
The plasma concentration was 501 ng/mL and 272 ng/mL (ICR mouse, male; oral, 3 mg/kg, 0.5 h).
It gave 28.6 ng/mL and 31.2 ng/mL and 78.4 ng/mL for plasma concentration (ICR mouse, male; oral, 3 mg/kg, 6 h).
Sprague Dawley rat, male; intravenous, 1 mg/kg, 0.5 h — plasma concentration: 212 ng/mL and 278 ng/mL.
For Sprague Dawley rat, male; intravenous, 1 mg/kg, 6 h: plasma concentration read 28 ng/mL and 27.2 ng/mL.
The plasma concentration was 107 ng/mL (male Sprague Dawley rats; oral, 3 mg/kg, 6 h).
The plasma concentration was 246 ng/mL and 240 ng/mL (Sprague Dawley rat, male; oral, 3 mg/kg, 4 h).
It gave 179 ng/mL for plasma concentration (male ICR mice; oral, 3 mg/kg, 2 h).
It gave 17.3 ng/mL for plasma concentration (male Sprague Dawley rats; intravenous, 1 mg/kg, 8 h).

Sample 3
Structure (SMILES): Cn1cncc1[C@](O)(COc1ccc(C#N)cc1-c1ccc(OC(F)(F)F)cc1)c1ccc(C#N)cc1
Observed: cell-free assay
Technique: competition with immobilised ligand
Tested at: 1 µM
For Dual specificity protein kinase CLK2 (CLK2, Homo sapiens, UniProt P49760): remaining binding read 87%.
cAMP-dependent protein kinase catalytic subunit PRKX (PRKX, Homo sapiens, UniProt P51817) — remaining binding: 87%.
The remaining binding was 55% (Mitogen-activated protein kinase kinase kinase 10 (MAP3K10, Homo sapiens, UniProt Q02779)).
For Homeodomain-interacting protein kinase 3 (HIPK3, Homo sapiens, UniProt Q9H422): remaining binding read 100%.
The remaining binding was 100% (Activin receptor type-2A (ACVR2A, Homo sapiens, UniProt P27037)).
The remaining binding was 100% (Inhibitor of nuclear factor kappa-B kinase subunit epsilon (IKBKE, Homo sapiens, UniProt Q14164)).
The remaining binding was 82% (Tyrosine-protein kinase CSK (CSK, Homo sapiens, UniProt P41240)).
Ribosomal protein S6 kinase alpha-3, C-terminal kinase domain (RPS6KA3, Homo sapiens, UniProt P51812) — remaining binding: 87%.
For Cyclin-G-associated kinase (GAK, Homo sapiens, UniProt O14976): remaining binding read 97%.
For Discoidin domain-containing receptor 2 (DDR2, Homo sapiens, UniProt Q16832): remaining binding read 100%.
It gave 100% for remaining binding (Tyrosine-protein kinase HCK (HCK, Homo sapiens, UniProt P08631)).
For Ephrin type-B receptor 2 (EPHB2, Homo sapiens, UniProt P29323): remaining binding read 94%.
Bone morphogenetic protein receptor type-2 (BMPR2, Homo sapiens, UniProt Q13873) — remaining binding: 89%.
The remaining binding was 85% (Calcium/calmodulin-dependent protein kinase type II subunit beta (CAMK2B, Homo sapiens, UniProt Q13554)).
Ribosomal protein S6 kinase alpha-1, C-terminal kinase domain (RPS6KA1, Homo sapiens, UniProt Q15418) — remaining binding: 100%.
It gave 83% for remaining binding (Dual specificity mitogen-activated protein kinase kinase 5 (MAP2K5, Homo sapiens, UniProt Q13163)).
It gave 72% for remaining binding (Tyrosine-protein kinase JAK3, JH1 (JAK3, Homo sapiens, UniProt P52333)).
For Serine/threonine-protein kinase N2 (PKN2, Homo sapiens, UniProt Q16513): remaining binding read 100%.

Mixed results
Host: mouse
Medium: microsomes or S9
Tested at: 2 µM
Time: 0.5 h
For `COc1cc(C2NCc3ccccc3-n3cccc32)ccc1O` (centres unmarked), the remaining compound was 23.3%.
`CN1CCN(C(=O)Cc2ccc(Br)cc2)CC1` gave a remaining compound of 6.05%.

Excerpt of the above (sample 1):
The luminescence remaining was 9.34% and 9.28% (6.667 µM, 72 h).
0.02743 µM, 4 h — luminescence remaining: 119% and 95.2%.
It gave 105% and 101% and 92% and 94.1% and 85.9% and 117% and 103% and 102% for luminescence remaining (0.00914 µM, 0 h).
